Published values from different studies.
Numbered parts are unrelated; each lists some results of a single study. Positions count from the first letter of the parent shown.
UniProt Q99558, sequence (whole entry, looked up): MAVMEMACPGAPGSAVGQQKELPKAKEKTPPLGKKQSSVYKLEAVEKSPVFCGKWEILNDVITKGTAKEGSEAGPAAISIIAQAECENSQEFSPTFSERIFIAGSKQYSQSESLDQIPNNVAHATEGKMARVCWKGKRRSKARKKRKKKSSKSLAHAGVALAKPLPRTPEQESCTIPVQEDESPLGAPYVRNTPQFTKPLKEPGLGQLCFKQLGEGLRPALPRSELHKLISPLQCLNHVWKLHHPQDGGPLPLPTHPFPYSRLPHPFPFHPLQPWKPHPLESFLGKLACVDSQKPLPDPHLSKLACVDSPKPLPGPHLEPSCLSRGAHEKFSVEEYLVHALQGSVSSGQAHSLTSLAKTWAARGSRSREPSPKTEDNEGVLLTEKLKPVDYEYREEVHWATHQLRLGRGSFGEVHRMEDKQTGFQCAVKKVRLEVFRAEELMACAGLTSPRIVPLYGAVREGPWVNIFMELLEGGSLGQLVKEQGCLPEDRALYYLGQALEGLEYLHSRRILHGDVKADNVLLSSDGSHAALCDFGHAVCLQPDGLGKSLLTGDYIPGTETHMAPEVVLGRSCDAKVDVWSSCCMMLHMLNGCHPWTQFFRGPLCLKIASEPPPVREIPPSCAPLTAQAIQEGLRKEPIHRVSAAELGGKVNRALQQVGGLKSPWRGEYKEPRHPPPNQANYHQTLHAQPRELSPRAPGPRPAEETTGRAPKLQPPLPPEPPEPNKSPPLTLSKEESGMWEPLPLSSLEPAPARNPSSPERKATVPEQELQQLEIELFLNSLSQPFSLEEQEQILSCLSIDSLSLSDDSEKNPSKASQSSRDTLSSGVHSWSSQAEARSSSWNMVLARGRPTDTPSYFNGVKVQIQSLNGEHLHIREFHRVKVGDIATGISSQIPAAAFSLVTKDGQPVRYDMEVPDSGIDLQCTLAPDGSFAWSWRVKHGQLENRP
UniProt O00750, sequence (whole entry, looked up): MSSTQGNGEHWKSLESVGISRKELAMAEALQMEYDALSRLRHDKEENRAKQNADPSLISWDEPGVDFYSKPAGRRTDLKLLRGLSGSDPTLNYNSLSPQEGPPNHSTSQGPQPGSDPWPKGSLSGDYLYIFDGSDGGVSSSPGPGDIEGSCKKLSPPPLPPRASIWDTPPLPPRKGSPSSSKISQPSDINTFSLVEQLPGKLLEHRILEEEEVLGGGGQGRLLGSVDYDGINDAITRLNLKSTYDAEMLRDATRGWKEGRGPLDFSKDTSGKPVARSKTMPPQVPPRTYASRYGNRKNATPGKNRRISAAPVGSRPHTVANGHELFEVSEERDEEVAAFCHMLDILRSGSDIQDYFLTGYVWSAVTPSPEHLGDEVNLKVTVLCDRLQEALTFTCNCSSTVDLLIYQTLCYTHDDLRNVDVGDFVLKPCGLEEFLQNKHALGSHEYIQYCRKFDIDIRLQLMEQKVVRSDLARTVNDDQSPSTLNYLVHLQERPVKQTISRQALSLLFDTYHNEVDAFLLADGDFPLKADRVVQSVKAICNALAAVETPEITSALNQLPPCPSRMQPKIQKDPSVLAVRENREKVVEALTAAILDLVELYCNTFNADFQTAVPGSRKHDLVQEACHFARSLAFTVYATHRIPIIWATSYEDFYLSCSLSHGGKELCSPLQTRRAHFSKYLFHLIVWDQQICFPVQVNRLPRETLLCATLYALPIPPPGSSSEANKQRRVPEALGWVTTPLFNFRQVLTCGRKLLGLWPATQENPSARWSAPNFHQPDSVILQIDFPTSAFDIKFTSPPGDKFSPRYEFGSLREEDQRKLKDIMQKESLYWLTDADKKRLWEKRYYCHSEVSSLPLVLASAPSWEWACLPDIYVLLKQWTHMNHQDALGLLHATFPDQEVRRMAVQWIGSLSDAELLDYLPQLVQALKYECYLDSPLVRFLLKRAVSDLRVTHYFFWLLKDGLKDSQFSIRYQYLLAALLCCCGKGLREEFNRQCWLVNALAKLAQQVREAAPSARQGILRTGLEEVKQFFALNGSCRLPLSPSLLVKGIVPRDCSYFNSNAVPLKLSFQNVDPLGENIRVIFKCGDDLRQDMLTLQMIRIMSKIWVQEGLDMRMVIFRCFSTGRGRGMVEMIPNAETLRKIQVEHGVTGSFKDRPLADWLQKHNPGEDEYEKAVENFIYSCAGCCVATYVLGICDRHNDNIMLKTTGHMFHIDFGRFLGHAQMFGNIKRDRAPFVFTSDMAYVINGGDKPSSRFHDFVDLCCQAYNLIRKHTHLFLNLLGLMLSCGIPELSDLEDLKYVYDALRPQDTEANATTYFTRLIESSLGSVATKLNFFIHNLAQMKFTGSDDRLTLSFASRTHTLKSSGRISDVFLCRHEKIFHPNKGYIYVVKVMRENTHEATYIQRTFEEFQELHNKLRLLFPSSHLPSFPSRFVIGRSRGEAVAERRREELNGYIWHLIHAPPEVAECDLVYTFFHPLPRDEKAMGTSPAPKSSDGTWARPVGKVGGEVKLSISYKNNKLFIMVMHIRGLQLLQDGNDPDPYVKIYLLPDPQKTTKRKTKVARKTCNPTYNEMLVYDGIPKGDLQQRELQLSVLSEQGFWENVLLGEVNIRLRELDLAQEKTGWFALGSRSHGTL

Set 1
Change: P146L
Target: ABI1, truncated, D143A, DHFR fusion (Arabidopsis thaliana)
Method: DHFR PCA, deep sequencing
Matrix: yeast
Notes: methotrexate growth selection, single substitutions
Reference: wild-type fitted maximum
Reading: higher = stronger binding
Starting sequence: PYL1, truncated, DHFR fusion (Arabidopsis thaliana); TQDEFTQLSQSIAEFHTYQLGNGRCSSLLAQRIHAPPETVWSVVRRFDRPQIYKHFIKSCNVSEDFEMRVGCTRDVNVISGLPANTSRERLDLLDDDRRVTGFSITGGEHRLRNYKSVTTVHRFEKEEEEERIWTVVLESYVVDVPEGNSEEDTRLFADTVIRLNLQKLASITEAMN
together with | relative binding score [%]
(+)-ABA 710 µM | 65
(+)-ABA 4.8 µM | 7.39
(+)-ABA 1.4 µM | 12.1
(+)-ABA 2500 µM | 74.4
(+)-ABA 58 µM | 27.1
(+)-ABA 17 µM | 13.9

Set 2
Partner: ARF7 1030-1164 (Arabidopsis thaliana, UniProt P93022)
Method: two-hybrid
Reference: out of 4 tests
Reading: higher = firmer interaction
B1: IAA29 (Arabidopsis thaliana, UniProt Q93WC4); chain MELDLGLSLSPHKSSKLGFNFDLNKHCAIEGAASCLGTEKLRFEATFGLGNVEENCYMPKQRLFALNGQPNEEDEDPLESESSIVYDDEEENSEVVGWPPVKTCMIKYGSYHHRHIRNHHHCPYHHRGRRITAMNNNISNPTTATVGSSSSSSISSRSSMYVKVKMDGVAIARKVDIKLFNSYESLTNSLITMFTEYEDCDREDTNYTFTFQGKEGDWLLRGDVTWKIFAESVHRISIIRDRPCAYTRCLF
B2: IAA34 (Arabidopsis thaliana, UniProt Q9C5X0); chain MYCSDPPHPLHLVASDKQQKDHKLILSWKKPTMDSDPLGVFPNSPKYHPYYSQTTEFGGVIDLGLSLRTIQHEIYHSSGQRYCSNEGYRRKWGYVKVTMDGLVVGRKVCVLDHGSYSTLAHQLEDMFGMQSVSGLRLFQMESEFCLVYRDEEGLWRNAGDVPWNEFIESVERLRITRRNDAVLPF
B3: IAA33 (Arabidopsis thaliana, UniProt Q9FKM7); chain MNSFEPQSQDSLQRRFHQDNSTTQQPRDTTTPFIPKPASKNHNNSNSSSGAAGRSFQGFGLNVEDDLVSSVVPPVTVVLEGRSICQRISLDKHGSYQSLASALRQMFVDGADSTDDLDLSNAIPGHLIAYEDMENDLLLAGDLTWKDFVRVAKRIRILPVKGNTRQVKRNE
B4: ARF1 538-665 (Arabidopsis thaliana, UniProt Q8L7G0); chain SRQIRSCTKVHMQGSAVGRAIDLTRSECYEDLFKKLEEMFDIKGELLESTKKWQVVYTDDEDDMMMVGDDPWNEFCGMVRKIFIYTPEEVKKLSPKNKLAVNARMQLKADAEENGNTEGRSSSMAGSR
Residues (chain): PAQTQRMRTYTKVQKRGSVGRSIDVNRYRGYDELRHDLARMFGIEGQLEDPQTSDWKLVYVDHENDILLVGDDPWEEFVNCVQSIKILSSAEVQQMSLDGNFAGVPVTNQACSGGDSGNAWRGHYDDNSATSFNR
Sequence | positive tests
B1 (IAA29) | 4
B2 (IAA34) | 2
B3 (IAA33) | 2
B4 (ARF1 538-665) | 1

Set 3
Structure (SMILES): Cc1cc(NC(=O)c2cccc(S(F)(F)(F)(F)F)c2)cc(-n2ccn3nc(-c4cccnc4)cc23)c1
Observed: cell-free assay
Method: competition with immobilised ligand
Tested at: 1 µM
target | remaining binding
Tyrosine-protein kinase ABL1, non-phosphorylated (ABL1, Homo sapiens, UniProt P00519) | 52.2%
Phosphatidylinositol 4-phosphate 3-kinase C2 domain-containing subunit beta (PIK3C2B, Homo sapiens, UniProt O00750) | 100%
Mitogen-activated protein kinase kinase kinase 14 (MAP3K14, Homo sapiens, UniProt Q99558) | 73.8%

Set 4
Target: STE20-like serine/threonine-protein kinase (SLK, Homo sapiens, UniProt Q9H2G2)
UniProt Q9H2G2, sequence (whole entry, looked up): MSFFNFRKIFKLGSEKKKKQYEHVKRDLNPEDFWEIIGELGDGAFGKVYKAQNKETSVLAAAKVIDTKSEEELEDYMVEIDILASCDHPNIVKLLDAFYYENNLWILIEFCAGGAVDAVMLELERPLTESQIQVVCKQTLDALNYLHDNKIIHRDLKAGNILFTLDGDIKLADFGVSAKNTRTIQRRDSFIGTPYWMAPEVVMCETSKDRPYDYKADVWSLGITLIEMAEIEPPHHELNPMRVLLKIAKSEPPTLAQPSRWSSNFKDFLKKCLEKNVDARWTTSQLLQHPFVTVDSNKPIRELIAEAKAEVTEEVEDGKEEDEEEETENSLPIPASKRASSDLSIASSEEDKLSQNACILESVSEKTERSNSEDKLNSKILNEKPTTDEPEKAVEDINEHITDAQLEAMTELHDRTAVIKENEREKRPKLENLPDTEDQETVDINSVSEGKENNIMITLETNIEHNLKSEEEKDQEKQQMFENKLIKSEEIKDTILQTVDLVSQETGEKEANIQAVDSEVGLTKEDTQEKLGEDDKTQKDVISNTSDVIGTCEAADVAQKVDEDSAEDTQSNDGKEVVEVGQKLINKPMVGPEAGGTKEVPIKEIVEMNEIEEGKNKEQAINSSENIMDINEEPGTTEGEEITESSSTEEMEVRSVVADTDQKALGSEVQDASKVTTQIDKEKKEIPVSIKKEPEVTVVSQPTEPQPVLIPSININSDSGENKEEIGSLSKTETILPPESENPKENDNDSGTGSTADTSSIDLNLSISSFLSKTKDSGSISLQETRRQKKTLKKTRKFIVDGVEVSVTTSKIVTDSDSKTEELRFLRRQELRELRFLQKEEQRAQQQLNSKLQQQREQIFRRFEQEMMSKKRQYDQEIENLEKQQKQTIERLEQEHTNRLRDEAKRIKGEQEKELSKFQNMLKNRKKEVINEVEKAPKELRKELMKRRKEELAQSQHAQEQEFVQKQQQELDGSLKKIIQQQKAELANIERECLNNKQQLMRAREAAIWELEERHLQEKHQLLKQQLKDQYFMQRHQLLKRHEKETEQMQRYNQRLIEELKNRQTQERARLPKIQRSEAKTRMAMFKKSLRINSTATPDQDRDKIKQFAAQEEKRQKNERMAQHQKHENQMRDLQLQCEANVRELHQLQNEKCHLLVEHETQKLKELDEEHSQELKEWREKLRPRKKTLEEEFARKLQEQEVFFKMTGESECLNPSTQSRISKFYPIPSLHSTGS
Observed: enzyme activity
Mode: inhibitor
Tested at: 0.5 µM
Reference: control
SMILES | remaining activity
CCCCc1c(-c2ccc(O)cc2)[nH]c2nccnc12 | 77.3%
O=C1c2ccccc2-c2nc3nnnn3nc21 | 92.4%
O=C1Cc2c([nH]c3ccc(Br)cc23)-c2ccccc2N1 | 95.7%
NC(=O)c1cccc(-c2cc(Nc3ccc(OC(F)(F)F)cc3)ncn2)c1 | 98.2%
CN1CCN(c2ccc3nc(-c4c(N)c5c(F)cccc5[nH]c4=O)[nH]c3c2)CC1 | 68.1%
C[C@@H](N)[C@H]1CC[C@H](C(=O)Nc2ccncc2)CC1 | 94.7%
COc1cc2c(N3CCN(C(=O)Nc4ccc(OC(C)C)cc4)CC3)ncnc2cc1OCCCN1CCCCC1 | 94.6%
CC(C)n1cnc2c(Nc3cccc(Cl)c3)nc(NCCO)nc21 | 84.8%
O=Nc1c(-c2c(O)[nH]c3cc(Br)ccc23)[nH]c2ccccc12 | 56.1%
CC(C)(C)c1nc2c3cc[nH]c(=O)c3c3cc(F)ccc3c2[nH]1 | 91.4%
COc1cccc(-c2cc(=O)c3ccccc3o2)c1N | 102%
O=C(c1ccccc1)c1ccc(N2CCOCC2)cc1O | 106%
CCN(CC)CCCCN1c2ccccc2Oc2ccc(Cl)cc21 | 105%
O=c1cc(N2CCOCC2)oc2c(-c3ccccc3)cccc12 | 102%
NC(=O)c1ccc(-c2nc(-c3ccc4c(c3)OCCO4)c(-c3ccccn3)[nH]2)cc1 | 96.2%
N#C/C(=C(/N)SC1C=CC=CC1)c1cccc(C(O)c2ccncc2)c1 (stereo not drawn) | 105%
O=C1Nc2ccc(Br)cc2/C1=C/c1cc2c([nH]1)CCCC2 | 73.4%
CCCNC(=O)Nc1ccc(Oc2ncnc3cc(OC)c(OC)cc23)cc1Cl | 80%

Set 5
Target: Protein C-ets-1 (ETS1, Homo sapiens, UniProt P14921, residues 1-441, Y397A, full length assumed)
UniProt P14921, sequence (whole entry, unmodified, looked up): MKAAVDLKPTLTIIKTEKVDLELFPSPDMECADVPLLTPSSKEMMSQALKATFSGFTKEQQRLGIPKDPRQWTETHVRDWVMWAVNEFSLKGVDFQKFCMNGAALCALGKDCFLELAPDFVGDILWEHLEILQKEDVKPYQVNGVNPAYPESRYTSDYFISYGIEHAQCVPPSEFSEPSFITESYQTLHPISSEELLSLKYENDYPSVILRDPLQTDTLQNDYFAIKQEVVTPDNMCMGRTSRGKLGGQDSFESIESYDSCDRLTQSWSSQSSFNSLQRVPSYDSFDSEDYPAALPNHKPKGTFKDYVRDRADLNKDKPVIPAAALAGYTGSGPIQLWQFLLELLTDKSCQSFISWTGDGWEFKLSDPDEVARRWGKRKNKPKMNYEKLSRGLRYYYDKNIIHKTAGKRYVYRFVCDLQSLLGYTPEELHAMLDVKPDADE
Method: protein-binding microarray
Molecule type: double-stranded DNA, one strand shown
Matrix: in vitro
Tested at: not given
Notes: k-mer, scored over probes, only values ≥0.25
Reading: higher = stronger binding
Sequence | E-score
ATCAACAA | 0.303
CACAAAAC | 0.276
AAACGACA | 0.371
CTAGCAAA | 0.316
ATGACAAA | 0.387
GCCGGAAA | 0.384
ACAATAGT | 0.274
CGGAAACG | 0.389

A few entries again (set 4):
SMILES | remaining activity
CC(C)(C)c1nc2c3cc[nH]c(=O)c3c3cc(F)ccc3c2[nH]1 | 91.4%
COc1cccc(-c2cc(=O)c3ccccc3o2)c1N | 102%
O=C(c1ccccc1)c1ccc(N2CCOCC2)cc1O | 106%
CCN(CC)CCCCN1c2ccccc2Oc2ccc(Cl)cc21 | 105%
O=c1cc(N2CCOCC2)oc2c(-c3ccccc3)cccc12 | 102%
NC(=O)c1ccc(-c2nc(-c3ccc4c(c3)OCCO4)c(-c3ccccn3)[nH]2)cc1 | 96.2%
